Published values from different studies.
Each line is one published result; not all experiments were run side by side. Several values in a cell are separate wells, animals, samples, runs or records. ± gives the spread as reported.
APP amyloid-beta peptide: Amyloid-beta precursor protein, amyloid-beta peptide (APP, Homo sapiens, UniProt P05067)
Tubulin alpha/beta heterodimer: Tubulin alpha/beta heterodimer (Leishmania infantum, UniProt A0A381MCS3+A4HTR0)
ESR1: Estrogen receptor (ESR1, Homo sapiens, UniProt P03372)

The chains behind the UniProt entries cited, without tags or fusion partners. Residues count along the entry.
UniProt A0A381MCS3, 1-451: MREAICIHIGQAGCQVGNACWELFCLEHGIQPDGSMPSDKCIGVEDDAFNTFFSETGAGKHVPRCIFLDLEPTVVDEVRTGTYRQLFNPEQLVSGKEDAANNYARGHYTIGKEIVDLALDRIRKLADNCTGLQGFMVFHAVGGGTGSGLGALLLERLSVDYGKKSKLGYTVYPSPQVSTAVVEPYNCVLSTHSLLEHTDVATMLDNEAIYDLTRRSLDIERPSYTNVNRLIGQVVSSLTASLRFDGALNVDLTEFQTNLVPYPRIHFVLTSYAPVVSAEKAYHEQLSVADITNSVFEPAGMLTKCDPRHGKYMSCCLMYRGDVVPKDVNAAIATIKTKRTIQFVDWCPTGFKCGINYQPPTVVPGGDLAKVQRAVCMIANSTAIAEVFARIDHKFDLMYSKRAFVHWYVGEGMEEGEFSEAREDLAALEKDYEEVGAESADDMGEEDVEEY
UniProt A4HTR0, 1-443: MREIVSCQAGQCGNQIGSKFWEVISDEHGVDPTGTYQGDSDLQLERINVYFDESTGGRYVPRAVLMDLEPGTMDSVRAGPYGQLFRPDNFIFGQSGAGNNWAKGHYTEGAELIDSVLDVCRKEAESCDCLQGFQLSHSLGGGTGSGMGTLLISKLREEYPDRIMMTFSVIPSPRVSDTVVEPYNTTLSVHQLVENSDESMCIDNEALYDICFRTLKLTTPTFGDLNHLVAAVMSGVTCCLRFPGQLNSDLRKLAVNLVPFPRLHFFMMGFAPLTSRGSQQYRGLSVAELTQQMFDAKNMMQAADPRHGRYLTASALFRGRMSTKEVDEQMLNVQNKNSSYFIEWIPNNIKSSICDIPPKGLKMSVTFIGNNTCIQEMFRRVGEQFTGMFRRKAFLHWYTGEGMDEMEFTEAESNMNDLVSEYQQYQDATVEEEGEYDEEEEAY
UniProt P03372, whole entry: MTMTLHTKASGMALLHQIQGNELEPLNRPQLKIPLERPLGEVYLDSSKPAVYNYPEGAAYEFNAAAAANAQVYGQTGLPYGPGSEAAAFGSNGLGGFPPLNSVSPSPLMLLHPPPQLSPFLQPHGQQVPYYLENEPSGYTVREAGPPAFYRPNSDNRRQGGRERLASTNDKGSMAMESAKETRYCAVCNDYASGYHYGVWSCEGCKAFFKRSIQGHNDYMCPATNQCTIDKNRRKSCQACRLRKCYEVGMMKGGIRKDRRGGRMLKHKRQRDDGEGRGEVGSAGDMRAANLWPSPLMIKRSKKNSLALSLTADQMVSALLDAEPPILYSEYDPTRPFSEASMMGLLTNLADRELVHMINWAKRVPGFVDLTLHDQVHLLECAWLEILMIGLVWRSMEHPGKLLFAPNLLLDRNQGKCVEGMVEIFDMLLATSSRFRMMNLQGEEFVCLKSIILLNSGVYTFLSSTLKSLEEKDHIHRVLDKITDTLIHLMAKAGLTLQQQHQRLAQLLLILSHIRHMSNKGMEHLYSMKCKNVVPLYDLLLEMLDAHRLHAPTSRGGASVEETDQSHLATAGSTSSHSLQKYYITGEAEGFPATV
UniProt O00167, whole entry: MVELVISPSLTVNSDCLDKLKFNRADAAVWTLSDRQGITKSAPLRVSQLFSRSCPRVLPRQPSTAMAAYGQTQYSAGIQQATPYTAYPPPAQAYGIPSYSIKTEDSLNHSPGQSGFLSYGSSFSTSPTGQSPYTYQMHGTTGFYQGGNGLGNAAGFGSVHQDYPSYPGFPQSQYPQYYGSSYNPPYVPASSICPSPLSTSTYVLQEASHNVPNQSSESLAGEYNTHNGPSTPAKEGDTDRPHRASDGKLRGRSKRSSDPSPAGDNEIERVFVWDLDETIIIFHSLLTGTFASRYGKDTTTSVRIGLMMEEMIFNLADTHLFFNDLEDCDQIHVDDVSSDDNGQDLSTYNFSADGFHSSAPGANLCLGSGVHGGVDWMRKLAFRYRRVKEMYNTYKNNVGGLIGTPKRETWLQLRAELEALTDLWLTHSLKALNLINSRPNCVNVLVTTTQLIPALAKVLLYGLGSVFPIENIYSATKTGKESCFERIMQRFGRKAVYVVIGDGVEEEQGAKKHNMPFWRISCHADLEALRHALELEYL
UniProt O35350, whole entry: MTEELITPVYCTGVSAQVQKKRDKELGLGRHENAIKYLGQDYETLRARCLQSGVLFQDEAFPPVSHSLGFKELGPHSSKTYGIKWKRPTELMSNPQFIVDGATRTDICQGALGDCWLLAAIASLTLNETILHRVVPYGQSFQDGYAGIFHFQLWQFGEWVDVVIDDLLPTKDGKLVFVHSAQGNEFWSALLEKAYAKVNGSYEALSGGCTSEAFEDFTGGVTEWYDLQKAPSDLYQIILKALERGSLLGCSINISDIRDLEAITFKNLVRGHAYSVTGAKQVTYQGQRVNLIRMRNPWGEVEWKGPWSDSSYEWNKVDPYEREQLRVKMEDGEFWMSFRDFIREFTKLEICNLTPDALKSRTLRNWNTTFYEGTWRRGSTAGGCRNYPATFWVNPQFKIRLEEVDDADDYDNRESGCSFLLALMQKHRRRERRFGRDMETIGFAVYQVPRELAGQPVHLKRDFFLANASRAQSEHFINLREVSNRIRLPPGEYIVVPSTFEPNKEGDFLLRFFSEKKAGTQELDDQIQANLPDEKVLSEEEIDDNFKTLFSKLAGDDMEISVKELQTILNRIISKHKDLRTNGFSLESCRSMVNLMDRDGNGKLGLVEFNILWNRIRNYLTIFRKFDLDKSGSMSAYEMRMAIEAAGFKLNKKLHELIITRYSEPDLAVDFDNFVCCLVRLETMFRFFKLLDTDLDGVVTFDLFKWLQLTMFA
UniProt P14902, whole entry: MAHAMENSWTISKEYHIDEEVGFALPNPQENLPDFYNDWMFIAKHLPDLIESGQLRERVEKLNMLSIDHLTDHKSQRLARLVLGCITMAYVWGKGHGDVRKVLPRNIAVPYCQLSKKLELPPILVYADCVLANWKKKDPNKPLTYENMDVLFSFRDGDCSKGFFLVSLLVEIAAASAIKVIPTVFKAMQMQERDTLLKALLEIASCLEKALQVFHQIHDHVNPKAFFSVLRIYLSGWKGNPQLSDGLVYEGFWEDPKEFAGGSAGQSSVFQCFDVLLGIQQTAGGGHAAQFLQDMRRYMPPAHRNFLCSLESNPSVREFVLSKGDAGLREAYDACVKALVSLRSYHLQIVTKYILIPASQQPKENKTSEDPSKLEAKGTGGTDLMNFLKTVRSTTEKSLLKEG
UniProt P38158, whole entry: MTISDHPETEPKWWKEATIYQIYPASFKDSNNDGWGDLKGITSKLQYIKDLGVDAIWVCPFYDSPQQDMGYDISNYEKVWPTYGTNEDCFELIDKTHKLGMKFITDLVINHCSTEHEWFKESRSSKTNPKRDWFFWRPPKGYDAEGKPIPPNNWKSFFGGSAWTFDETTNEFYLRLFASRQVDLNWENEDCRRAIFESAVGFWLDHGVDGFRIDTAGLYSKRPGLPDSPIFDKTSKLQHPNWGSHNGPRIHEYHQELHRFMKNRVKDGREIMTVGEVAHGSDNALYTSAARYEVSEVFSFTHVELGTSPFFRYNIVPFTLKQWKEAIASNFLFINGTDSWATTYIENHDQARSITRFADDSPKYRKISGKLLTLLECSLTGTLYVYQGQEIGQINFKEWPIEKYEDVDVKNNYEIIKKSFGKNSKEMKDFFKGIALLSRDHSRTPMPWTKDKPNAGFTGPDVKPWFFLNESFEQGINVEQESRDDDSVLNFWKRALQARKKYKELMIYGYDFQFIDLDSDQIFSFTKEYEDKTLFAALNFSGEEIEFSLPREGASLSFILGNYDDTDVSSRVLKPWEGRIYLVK
UniProt Q9BV23, whole entry: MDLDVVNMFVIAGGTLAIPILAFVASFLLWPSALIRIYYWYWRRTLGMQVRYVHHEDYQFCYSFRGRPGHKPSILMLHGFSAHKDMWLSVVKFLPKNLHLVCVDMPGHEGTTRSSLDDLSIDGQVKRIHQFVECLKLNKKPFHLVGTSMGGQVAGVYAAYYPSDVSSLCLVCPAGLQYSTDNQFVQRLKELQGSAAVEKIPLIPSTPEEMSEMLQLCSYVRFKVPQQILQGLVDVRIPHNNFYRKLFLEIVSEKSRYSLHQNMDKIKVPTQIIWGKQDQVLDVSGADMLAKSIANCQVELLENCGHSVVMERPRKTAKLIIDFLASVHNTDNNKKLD
UniProt P56817, whole entry, looked up: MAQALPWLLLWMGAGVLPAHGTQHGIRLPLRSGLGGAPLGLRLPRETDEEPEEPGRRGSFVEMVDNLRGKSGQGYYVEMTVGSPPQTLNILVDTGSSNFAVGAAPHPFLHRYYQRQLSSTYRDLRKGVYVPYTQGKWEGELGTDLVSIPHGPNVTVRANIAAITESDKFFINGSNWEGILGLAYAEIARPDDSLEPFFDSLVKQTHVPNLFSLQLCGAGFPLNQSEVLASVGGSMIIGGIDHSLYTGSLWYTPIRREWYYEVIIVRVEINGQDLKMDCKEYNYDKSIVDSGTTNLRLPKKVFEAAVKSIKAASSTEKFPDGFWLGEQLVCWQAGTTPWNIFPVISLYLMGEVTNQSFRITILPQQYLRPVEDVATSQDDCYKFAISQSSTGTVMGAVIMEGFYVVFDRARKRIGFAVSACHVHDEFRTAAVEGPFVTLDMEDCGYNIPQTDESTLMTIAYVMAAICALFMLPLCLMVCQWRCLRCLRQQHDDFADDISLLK
UniProt Q9Y253, 1-437 limits assumed: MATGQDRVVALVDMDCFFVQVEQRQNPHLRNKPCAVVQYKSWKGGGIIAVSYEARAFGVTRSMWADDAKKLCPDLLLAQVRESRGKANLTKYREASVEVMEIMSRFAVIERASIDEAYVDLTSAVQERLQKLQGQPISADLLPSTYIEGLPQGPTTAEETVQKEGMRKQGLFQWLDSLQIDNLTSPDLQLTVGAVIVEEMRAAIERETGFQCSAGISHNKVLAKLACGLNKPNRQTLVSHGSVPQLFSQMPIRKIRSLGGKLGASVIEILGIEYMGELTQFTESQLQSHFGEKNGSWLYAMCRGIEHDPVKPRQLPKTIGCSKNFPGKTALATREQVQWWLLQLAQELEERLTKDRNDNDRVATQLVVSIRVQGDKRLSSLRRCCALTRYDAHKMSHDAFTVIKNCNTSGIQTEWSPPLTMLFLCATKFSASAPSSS
UniProt Q00526, whole entry: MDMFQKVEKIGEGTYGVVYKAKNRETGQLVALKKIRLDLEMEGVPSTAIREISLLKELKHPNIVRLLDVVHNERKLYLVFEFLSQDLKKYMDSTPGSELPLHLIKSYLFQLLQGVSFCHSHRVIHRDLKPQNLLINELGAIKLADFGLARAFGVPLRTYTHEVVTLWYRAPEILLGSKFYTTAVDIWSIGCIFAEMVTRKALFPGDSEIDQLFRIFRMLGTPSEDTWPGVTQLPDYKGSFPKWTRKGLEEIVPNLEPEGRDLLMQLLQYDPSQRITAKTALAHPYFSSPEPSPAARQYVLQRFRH
UniProt Q04609, whole entry: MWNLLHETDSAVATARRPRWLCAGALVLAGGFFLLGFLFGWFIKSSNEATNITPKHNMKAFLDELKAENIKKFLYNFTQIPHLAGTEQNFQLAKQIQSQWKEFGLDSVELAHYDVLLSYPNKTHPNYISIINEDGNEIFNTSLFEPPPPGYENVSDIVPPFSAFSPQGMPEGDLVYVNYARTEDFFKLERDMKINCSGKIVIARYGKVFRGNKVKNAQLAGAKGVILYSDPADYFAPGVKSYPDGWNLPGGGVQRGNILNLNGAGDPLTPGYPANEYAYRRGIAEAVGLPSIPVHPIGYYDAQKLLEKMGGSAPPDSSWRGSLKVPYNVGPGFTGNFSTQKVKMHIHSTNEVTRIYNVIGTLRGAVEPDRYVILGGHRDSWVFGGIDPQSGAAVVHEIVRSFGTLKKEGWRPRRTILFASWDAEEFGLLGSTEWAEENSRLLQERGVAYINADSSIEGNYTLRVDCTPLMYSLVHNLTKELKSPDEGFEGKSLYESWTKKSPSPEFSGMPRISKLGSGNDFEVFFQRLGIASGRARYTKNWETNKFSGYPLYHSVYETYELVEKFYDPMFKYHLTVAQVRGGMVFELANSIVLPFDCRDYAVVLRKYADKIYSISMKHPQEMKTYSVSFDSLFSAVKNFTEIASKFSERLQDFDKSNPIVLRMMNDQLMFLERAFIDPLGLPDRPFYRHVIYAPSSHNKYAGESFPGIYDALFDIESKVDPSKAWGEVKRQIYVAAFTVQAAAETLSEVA
UniProt Q07812, whole entry: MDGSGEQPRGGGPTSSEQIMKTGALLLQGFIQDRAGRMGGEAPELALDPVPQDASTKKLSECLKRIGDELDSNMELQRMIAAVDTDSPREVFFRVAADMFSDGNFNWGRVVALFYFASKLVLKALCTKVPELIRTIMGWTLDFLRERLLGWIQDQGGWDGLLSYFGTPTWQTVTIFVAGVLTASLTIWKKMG
UniProt P00519, 242-493 E255V limits assumed: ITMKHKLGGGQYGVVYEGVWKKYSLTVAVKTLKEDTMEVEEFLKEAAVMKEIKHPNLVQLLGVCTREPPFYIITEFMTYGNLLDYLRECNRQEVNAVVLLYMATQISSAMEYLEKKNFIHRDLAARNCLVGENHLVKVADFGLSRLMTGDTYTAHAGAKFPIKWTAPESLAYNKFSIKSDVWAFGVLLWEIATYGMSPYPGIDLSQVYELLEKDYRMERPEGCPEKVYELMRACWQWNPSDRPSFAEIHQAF

| SMILES | target | test | test system | conditions | IC50 |
| --- | --- | --- | --- | --- | --- |
| O=C(N/N=C/c1ccc(Sc2ncccn2)o1)c1cccc(Br)c1 | Protein phosphatase EYA2 (Homo sapiens, UniProt O00167) | tyrosine phosphatase activity, inhibitor |  |  | 0.55 µM |
| O=C(Nc1cccc(-c2cc[nH]n2)c1)C(NS(=O)(=O)c1cccs1)c1ccccc1 (centres unmarked) | Uracil nucleotide/cysteinyl leukotriene receptor, long isoform (GPR17, Homo sapiens, UniProt Q13304) | calcium mobilization, antagonist | 1321-N1 |  | 11.7 ± 0.42 µM |
| O=C(O)CNC(=O)c1cc(C(=O)O)cc([C@H]2CCN[C@@H]2C(=O)O)c1 | AMPA receptor (rat) | binding, radioligand binding | rat cortical synaptosomes | together with: [3H]AMPA | 17 µM |
| CS(=O)(=O)Oc1ccc(/C=C/c2c[nH]c3ccc(C#N)cc23)cc1 | APP amyloid-beta peptide | Aβ42 oligomerisation, ELISA |  |  | 4 µM |
| CCn1c(=Cc2cccc[n+]2C)sc(=C2Sc3ccccc3N2C)c1=O | Heat shock 70 kDa protein 1A, with BAG1 (HSPA1A, Homo sapiens, UniProt P0DMV8) | Hsp70-Bag1 interaction, inhibitor, flow cytometry (FCPIA) |  | together with: labeled Bag1 50 nM | 8.4 ± 0.8 µM |
| COC(=O)[C@@H]1C(C=Nc2cc(C)ccc2O)=Cc2cc3c(cc2[C@H]1c1cc(OC)c(OC)c(OC)c1)OCO3 | Tubulin alpha/beta heterodimer | tubulin polymerization, inhibitor |  | 37 °C, together with: tubulin 1.2 mg/mL | 4.3 ± 0.6 µM |
| CCC(NC(=O)C(CC(C)C)NC(=O)Cc1ccncc1)C(=O)C(=O)NCc1cc(OC)cc(OC)c1 (centres unmarked) | Calpain-1 catalytic subunit (Capn1, Mus musculus, UniProt O35350) | enzyme activity, inhibitor | pons-cerebellum membrane fractions | together with: calcium 20 µM | 0.409 µM |
| COc1cc(C(=O)N2CCC(N3CCN(C)CC3)CC2)ccc1Nc1ncc2c(n1)N(C(C)C)c1ccccc1C(=O)N2C | MAPK7 (Homo sapiens, UniProt Q13164) | kinase activity |  |  | 0.125 ± 0.026 µM |
| CCCCCC[C@@H]1C(=O)O[C@H]1C(=O)NCCC[C@H](NC(=O)[C@H](C)NC(=O)OCc1ccccc1)C(=O)OCc1ccccc1 | PSMB6/PSMB7, caspase-like site (Homo sapiens, UniProt P28072+Q99436) | caspase-like activity, inhibitor, fluorogenic | human 20S proteasome | 20 min preincubation, 37 °C, together with: Z-Leu-Leu-Glu-AMC 20 µM | 2.16 ± 0.05 µM |
| O=C(O)c1ccnc(N2CC3CC(c4ccccc4C(F)(F)F)CC3C2)n1 (centres unmarked) | Transthyretin (TTR, Homo sapiens, UniProt P02766) | binding, fluorescence polarization |  | together with: 25 µM FITC-labelled probe | 2.5 µM |
| NS(=O)(=O)c1ccc(Cc2c(-c3ccc(F)c(C#CC4CC4)c3)nn(-c3nc(C(=O)O)cs3)c2CC2CC2)cc1F | LDHA (Homo sapiens, UniProt P00338) | enzyme activity, inhibitor |  |  | 0.007 µM |
| COc1cccc(C(=O)Nc2ccc(-c3nc4ccccc4[nH]3)cc2)c1 | Moesin, with CD44 (Homo sapiens, UniProt P26038) | MSN-CD44 interaction, inhibitor, TR-FRET |  | together with: CD44 | > 100 µM |
| NC(=O)c1cn(-c2ccc(F)cc2)c2ccc(NCCc3cccnc3)cc2c1=O | Grm2 (Rattus norvegicus, UniProt P31421) | calcium mobilization, negative allosteric modulator |  |  | 0.296 µM |
| N#Cc1ccc2[nH]cc(/C=C/c3ccc([N+](=O)[O-])cc3F)c2c1 | IDO1 (Homo sapiens, UniProt P14902) | enzyme activity, inhibitor |  |  | > 100 µM |
| O=C(CCl)Nc1ccc2c(Nc3ccccc3)ncnc2c1 | STK11 (Homo sapiens, UniProt Q15831) | enzyme activity, inhibitor |  |  | > 10 µM |
| CC(C)NC(=O)CSc1nc2ccc(NC(=O)CSc3cc(Cl)ccc3Cl)cc2s1 | ESR1 | reporter gene, antagonist | HEC-1 transfected ERα luciferase reporter |  | 6.1 µM |
| COc1cc(Nc2ncnc3cc(I)ccc23)cc(OC)c1OC | PKN3 (Homo sapiens, UniProt Q6P5Z2) | binding, split-luciferase |  |  | < 1 µM |
| N#Cc1cccc(C(=O)N2C[C@H](O)C[C@H]2C(=O)NCc2ccc(-c3cnco3)cc2)c1 | von Hippel-Lindau disease tumor suppressor, with elongin B, C (VHL, Homo sapiens, UniProt P40337) | binding, fluorescence polarization |  | 1% DMSO, together with: FAM-HIF1α peptide tracer | 47.3 ± 1.3 µM |
| CCn1nccc1N=CC1=Cc2cc3c(cc2[C@@H](c2cc(OC)c(OC)c(OC)c2)[C@@H]1C(=O)OC)OCO3 | Tubulin alpha/beta heterodimer | tubulin polymerization, inhibitor |  | 37 °C, together with: tubulin 1.2 mg/mL | 7.5 ± 1.1 µM |
| CCOC(=O)C1=C(C)NC2=C(C(=O)CC(C)(C)C2)C1c1ccc(OCC(=O)NN=Cc2cccc(C=O)c2)cc1OCC(=O)NN=Cc1cccc(C=O)c1 (centres unmarked) | MAL32 (Saccharomyces cerevisiae, UniProt P38158) | inhibitor |  | pH 6.8, together with: p-nitrophenyl α-D-glucopyranoside | 6.7 ± 0.38 µM |
| N#Cc1cnc(Nc2nc3ccccc3o2)nc1C1CCCCC1 | Grm5 (Rattus norvegicus, UniProt P31424) | calcium mobilization, negative allosteric modulator |  | together with: glutamate EC80 | 0.216 ± 0.071 µM |
| O=C(OC(C(F)(F)F)C(F)(F)F)N1Cc2ccc(OCC3CC3)cc2C1 | ABHD6 (Homo sapiens, UniProt Q9BV23) | inhibitor, fluorescence |  |  | 0.0041 µM and 0.004 µM |

| SMILES | target | test | test system | conditions | IC50 |
| --- | --- | --- | --- | --- | --- |
| Cc1ccc2c(c1)CCN(C(=O)[C@@H](NC(=O)[C@H](CCCC(=O)O)NC(=O)[C@@H]1Cc3ccccc3N1)C(C)C)[C@@H]2C(=O)N[C@H](C=O)CC(=O)O | Cathepsin B (CTSB, Homo sapiens, UniProt P07858) | enzyme activity, inhibitor |  |  | 14.3 µM |
| O=C(O)c1cc(C(=O)N[C@@H](Cc2c[nH]c3ccccc23)C(=O)O)cc([C@H]2CCN[C@@H]2C(=O)O)c1 | AMPA receptor (rat) | binding, radioligand binding | rat cortical synaptosomes | together with: [3H]AMPA | 10 µM |
| COc1ccc2nc3ccc(OC)cc3c(CCCCN)c2c1 | DYRK2 (Homo sapiens, UniProt Q92630) | inhibitor |  | inactive at 20 µM, together with: Woodtide peptide substrate | 0.24 µM |
| C=C(C)C1CCC(C)=CC1c1c(O)cc(O)c2c(=O)c(-c3ccc(O)cc3)coc12 (centres unmarked) | Beta-secretase 1 (BACE1, Homo sapiens, UniProt P56817) | enzyme activity, inhibitor, enzyme fragment complementation chemiluminescence, item: amyloid precursor protein cleavage |  | 16 h | > 90 µM |
| CN1CCC[C@@H]1C(=O)N[C@@H](Cc1ccc(-c2ccccn2)cc1)B(O)O | Proteasome subunit beta type-9 / Proteasome subunit beta type-10 (Homo sapiens, UniProt P28065+P40306) | β1i enzyme activity, inhibitor |  | together with: Ac-PAL-AMC | > 10 µM |
| CCNC(=O)C(=O)[C@H](Cc1ccccc1)NC(=O)[C@H]1CCC(=O)N1Cc1ccc(F)cc1 | CAPN1 (Homo sapiens, UniProt P07384) | enzyme activity, inhibitor |  |  | 0.38 ± 0.03 µM |
| O=C(c1ccccc1)c1ccc2[nH]c3ncccc3c2c1 | ALK (Homo sapiens, UniProt Q9UM73) | ELISA |  |  | 42 µM |
| O=C(Nc1cccc(F)c1)c1cc(S(=O)(=O)N2CCOCC2)c(Cl)cc1Cl | Autotaxin (ENPP2, Homo sapiens, UniProt Q13822) | enzyme activity, inhibitor |  | 4 h, together with: 1 µM FS-3 | 0.032 ± 0.0058 µM |
| CC(C)NC(=O)CSc1nc2ccc(NC(=O)CSc3ccccc3Cl)cc2s1 | ESR1 | reporter gene, antagonist | HEC-1 transfected ERα luciferase reporter |  | 20 to 50 µM |
| Nc1nc2c(ncn2COCCNC(=O)c2cc3cc(Br)ccc3c(Br)c2O)c(=O)[nH]1 | SAMHD1 (Homo sapiens, UniProt Q9Y3Z3) | ssDNA binding, fluorescence anisotropy |  | 1 µM protein, together with: FAM-labelled 32-mer ssDNA probe | ~5 µM |
| O=C1NC(=O)C(=Cc2cn(Cc3ccc4ccccc4c3)c3ccc(Cl)cc23)C(=O)N1 | DNA polymerase eta (POLH, Homo sapiens, UniProt Q9Y253) | DNA polymerase activity, inhibitor, fluorescence |  | together with: dTTP 100 µM | 9 µM |
| CC(=O)Nc1cc(Nc2cc(NC3CC3)n3ncc(C#N)c3n2)ccc1N1CCOCC1 | CSNK2A1 (Homo sapiens, UniProt P68400) | target engagement, NanoBRET | HEK293 |  | 0.067 µM |
| CN1CC[C@H](c2c(O)cc(O)c3c(=O)cc(-c4ccccc4F)oc23)[C@H](O)C1 | Cyclin-dependent kinase 3, with cyclin E (CDK3, Homo sapiens, UniProt Q00526) |  |  | ATP at Km | 1.42 µM |
| CCS(=O)(=O)N(C)C(CCC(=O)O)C(=O)O (centres unmarked) | FOLH1 (Homo sapiens, UniProt Q04609) | enzyme activity, inhibitor, HPLC |  | 15 min, pH 7.4, 37 °C, 1% Triton X-100, together with: 10 mM glutamate dipeptide substrate | > 100 µM |
| OC(CN1CCNCC1)Cn1c2ccccc2c2cc(Cl)ccc21 (centres unmarked) | BAX (Homo sapiens, UniProt Q07812) | membrane permeabilization, inhibitor | ANTS/DPX liposomes | 400 nM BAX, together with: 30 nM tBID | 7.7 µM |
| Clc1ccc(C2(c3ccc(-c4ccnc5ncccc45)cc3)CCNCC2)cc1 | AKT1 (Homo sapiens, UniProt P31749) | kinase activity, inhibitor, radiometric HotSpot |  | together with: ATP 10 µM | > 10 µM |
| COc1cc(O)ccc1CCC(=O)c1ccc(O)cc1 | ALOX5 (Homo sapiens, UniProt P09917) | 5-LOX product formation, RP-HPLC | human PMNL | together with: A23187 and arachidonic acid | 8.9 ± 1.6 µM |
| COC(=O)/C(=C/c1c[nH]c2ccc(OC)cc12)c1ccc(F)cc1 | APP amyloid-beta peptide | Aβ42 oligomerisation, ELISA |  |  | > 20 µM |
| O=C(CC1Cc2ccccc2C1)N[C@H](CN1CC[C@@H](F)C1)[C@H](O)c1ccc2c(c1)OCCO2 | UGCG (Canis lupus familiaris, UniProt A0A8I3MXG6) | enzyme activity, inhibitor | MDCK cell homogenate membranes |  | 0.0436 µM |
| COc1ccc(SCC(=O)Nc2ccc3nc(SCC(=O)NC(C)C)sc3c2)cc1 | ESR1 | reporter gene, antagonist | HEC-1 transfected ERα luciferase reporter |  | > 50 µM |
| COc1cc(Nc2ncnc(-c3cccnc3Nc3cc(NC(=O)c4cccc(C(F)(F)F)c4)ccc3C)n2)cc(OC)c1OC | ABL1 (Homo sapiens, UniProt P00519, E255V) | enzyme activity |  | kinase domain | 0.04 ± 0.005 µM |
| Nc1c(Cl)ccc2cccnc12 | METAP1 (Homo sapiens, UniProt P53582) | enzyme activity, inhibitor |  |  | > 40 µM |

Repeated from above:
| SMILES | target | test | test system | conditions | IC50 |
| --- | --- | --- | --- | --- | --- |
| CCS(=O)(=O)N(C)C(CCC(=O)O)C(=O)O (centres unmarked) | FOLH1 (Homo sapiens, UniProt Q04609) | enzyme activity, inhibitor, HPLC |  | 15 min, pH 7.4, 37 °C, 1% Triton X-100, together with: 10 mM glutamate dipeptide substrate | > 100 µM |
| OC(CN1CCNCC1)Cn1c2ccccc2c2cc(Cl)ccc21 (centres unmarked) | BAX (Homo sapiens, UniProt Q07812) | membrane permeabilization, inhibitor | ANTS/DPX liposomes | 400 nM BAX, together with: 30 nM tBID | 7.7 µM |
| Clc1ccc(C2(c3ccc(-c4ccnc5ncccc45)cc3)CCNCC2)cc1 | AKT1 (Homo sapiens, UniProt P31749) | kinase activity, inhibitor, radiometric HotSpot |  | together with: ATP 10 µM | > 10 µM |
